Results gathered from unrelated publications.
Lines come from different studies, so protocols differ. ± gives the spread as reported.

Compound	system	setting	Tmax
Cn1nnc2c(C(N)=O)ncn2c1=O	male athymic rat, intracranial U87 glioma, tumour extracellular fluid	oral, 50 mg/kg, uncorrected microdialysis, median, with: before cediranib	1.5 h
CCN1CCN(c2ccc(Nc3cc(N(C)C(=O)Nc4c(Cl)c(OC)cc(OC)c4Cl)ncn3)cc2)CC1	Crl:WI(Han) rat, juvenile male, plasma	oral gavage, 1.0 mg/kg/day, postnatal day 17	3 h
COc1cccc(-c2n[nH]c(SCc3ccccn3)n2)c1OC	Sprague-Dawley rat, both sexes, plasma	oral, diet, 30 mg/kg/day, day 90	6 h
CC(C)=CCC[C@](C)(O[C@@H]1O[C@H](CO)[C@@H](O)[C@H](O)[C@H]1O)[C@H]1CC[C@]2(C)[C@@H]1[C@H](O)C[C@@H]1[C@@]3(C)CC[C@H](O)C(C)(C)[C@@H]3[C@@H](O[C@@H]3O[C@H](CO)[C@@H](O)[C@H](O)[C@H]3O)C[C@]12C	Sprague Dawley rat, male, plasma	oral, 25 mg/kg, mixture of pure ginsenosides	0.08 ± 0.02 h
CCCC[C@H](NC(C)=O)C(=O)N[C@H]1CCC(=O)NC[C@@H](C(=O)N[C@@H](Cc2c[nH]c3ccccc23)C(N)=O)NC(=O)[C@H](CCCNC(=N)N)NC(=O)[C@@H](Cc2ccccc2)NC(=O)[C@H](Cc2c[nH]cn2)NC1=O	CD Sprague Dawley rat, male, plasma	subcutaneous, 25.0 mg/kg daily, day 1	0.5 h
CS(=O)(=O)c1ccc(-c2cnc(N)c(-c3ccc(C(F)(F)F)nc3)c2)cc1	pregnant female Sprague-Dawley rat, plasma	oral, 10 mg/kg/day, gestation day 6	4 h
O=C(O)C[C@H](O)C[C@H](O)/C=C/c1c(C2CC2)nc2ccccc2c1-c1ccc(F)cc1	male Sprague Dawley rat, NASH, plasma	oral, 2.5 mg/kg, median, with: vehicle	0.5 h
CC(C)=CCC[C@](C)(O[C@@H]1O[C@H](CO[C@@H]2O[C@H](CO)[C@@H](O)[C@H](O)[C@H]2O)[C@@H](O)[C@H](O)[C@H]1O)[C@H]1CC[C@]2(C)[C@@H]1[C@H](O)C[C@@H]1[C@@]3(C)CC[C@H](O[C@@H]4O[C@H](CO)[C@@H](O)[C@H](O)[C@H]4O[C@@H]4O[C@H](CO)[C@@H](O)[C@H](O)[C@H]4O)C(C)(C)[C@@H]3CC[C@]12C	Sprague Dawley rat, male, plasma	oral, 86 mg/kg, white ginseng extract	8 ± 2.5 h
Cc1nc2cccc(OCC(C)(C)C(=O)NC(C)C)c2c(N)c1C(=O)O	male Sprague-Dawley rat, plasma	oral gavage, 30 mg/kg, day 7	0.33 h
C=CC(=O)Nc1cc(Nc2nccc(-c3cn(C)c4ccccc34)n2)c(OC)cc1N(C)CCN(C)C	Sprague-Dawley rat, male, plasma	oral, 10 mg/kg, with: avitinib 30 mg/kg single dose on day 7	6.8 ± 1.79 h
CC(C)=CCC[C@](C)(O[C@@H]1O[C@H](CO)[C@@H](O)[C@H](O)[C@H]1O)[C@H]1CC[C@]2(C)[C@@H]1[C@H](O)C[C@@H]1[C@@]3(C)CC[C@H](O)C(C)(C)[C@@H]3[C@@H](O[C@@H]3O[C@H](CO)[C@@H](O)[C@H](O)[C@H]3O[C@@H]3O[C@@H](C)[C@H](O)[C@@H](O)[C@H]3O)C[C@]12C	Sprague Dawley rat, male, plasma	oral, 45 mg/kg, frozen ginseng extract	8 ± 1.2 h
